Measurements gathered from unrelated publications.
Protocols differ between the studies behind these lines. Several values in a cell are separate wells, animals, samples, runs or records. ± gives the spread as reported.
rep main protease: Replicase polyprotein 1ab, main protease (rep, Severe acute respiratory syndrome coronavirus 2, UniProt P0DTD1)

`O=C[C@H](C[C@@H]1CCNC1=O)NC(=O)[C@H](CC1CCCCC1)NC(=O)c1cc2ccccc2[nH]1` has an inhibition of 98.2% and 100% (SARS-CoV-2; viral replication, NP immunofluorescence; Vero E6, 2019-nCoV-WIV04; 5 µM, together with: remdesivir 0 µM).
`Oc1ccc(-c2nc(-c3ccncc3)c(-c3ccc(F)cc3)[nH]2)cc1` has an inhibition of 54.6% (SARS-CoV-2; viral replication; Vero E6, USA-WA1/2020; 2.5 µM).
The inhibition of `Cn1cnc(Cn2c(=O)[nH]/c(=N\c3cc4cn(C)nc4cc3Cl)n(Cc3cc(F)c(F)cc3F)c2=O)n1` is reported as 90% (SARS-CoV-2; viral replication; Vero C1008, XBB.1; 0.1543 µM).
`O=C(Nc1ccc(-c2nc3ccccc3o2)cc1)c1ccc(NC(=O)c2cc3ccccc3o2)cc1` gave an inhibition of 1.21% (rep main protease; viral replication, Gluc reporter; SARS-CoV-2; 20 µM).
With `CC(CCc1ccc(C(N)=O)cc1)N(C[C@H](O)c1ccccc1)C[C@H](O)c1ccccc1` (stereo partly drawn) the inhibition was 45.6% (SARS-CoV-2; viral replication; Vero E6, USA-WA1/2020; 2.5 µM).
With `C[C@@H](O)[C@]1(O)[C@H]2Nc3c(cc(O)c4c3C(=O)c3ccccc3C4=O)[C@]1(O)[C@H](O)c1cccc(O)c12` the inhibition was 33% (SARS-CoV-2; viral replication, mNeonGreen reporter virus; 50 µM).
`C=CCc1cc(OC)c2c(c1)OCO2` has an inhibition of 0.796% (rep main protease; reporter gene (Gaussia luciferase), inhibitor; 20 µM).
With `CN1Cc2cc(Cl)ccc2-n2c(nnc2[C@H]2CC[C@H](Oc3ccccn3)CC2)C1` the inhibition was 52.6% (SARS-CoV-2; viral replication; Vero E6, USA-WA1/2020; 2.5 µM).
`CC(=O)O[C@H]1CC[C@]2(C)[C@H]3CC[C@]4(C)Oc5cc(C)oc(=O)c5C[C@H]4[C@]3(C)CC[C@H]2C1(C)C` has an inhibition of 95.4% (SARS-CoV-2; viral replication; mNeonGreen reporter; 50 µM).
`CCN(CC)CCO[C@H]1CC[C@@]2(C)C(=CC[C@@H]3[C@@H]2CC[C@]2(C)OCC[C@@H]32)C1` gave an inhibition of 40.6% (SARS-CoV-2; viral replication; Vero E6, USA-WA1/2020; 2.5 µM).
The inhibition of `Cc1nn(-c2ccc(Cl)cc2)c2c1C(c1ccc(Br)cc1)C(C#N)=C(N)O2` (stereo not drawn) is reported as 10.2% (SARS-CoV-2; viral replication; Vero; 1 µM).
With `CC(C)[C@@H]1CC(O)O[C@@H]([C@@H](C)[C@H]2CC(=O)[C@@H]3[C@@H]4[C@@H](O)[C@H](O)[C@H]5[C@@H](O)[C@H](O)CC[C@]5(C)[C@H]4CC[C@]23C)C1` (stereo partly drawn) the inhibition was 30.8% (SARS-CoV-2; viral replication, mNeonGreen reporter virus; 50 µM).
For `CCOC(=O)[C@H]1O[C@@H]1C(=O)N[C@@H](CC(C)C)C(=O)NCCC(C)C`, the inhibition was -1.62% (SARS-CoV-2; 0.06 µM).
`COc1cccc2c1CCCC2CCCN1CCN(C2CCCCC2)CC1` (stereo not drawn) — result for inhibition: “active” (SARS-CoV-2; viral replication; Vero E6; concentration not given).
For `NCCCNCCCN1CCCCCCCCCCCC1`, the inhibition was 32.1% (SARS-CoV-2; viral replication, mNeonGreen reporter virus; 50 µM).
`CC(C)=CCc1c(O)ccc(C(=O)/C=C/c2ccc(O)cc2)c1O` has an inhibition of 0% (SARS-CoV-2; viral cytopathic effect; Vero E6; 6.25 µM).
`Cc1nn(-c2ccc(Cl)cc2)c2c1C(c1ccc(Cl)cc1Cl)C(C#N)=C(N)O2` (stereo not drawn) gave an inhibition of 20.5% (SARS-CoV-2; viral replication; Vero; 1 µM).
For `CCN(CCO)CCCC(C)Nc1ccnc2cc(Cl)ccc12` (stereo not drawn), the inhibition was 7.37% (SARS-CoV-2; 0.47 µM).
`CC[C@H](C)[C@H](NC(=O)[C@H](CC(C)C)NC(=O)[C@H](Cc1c[nH]c2ccccc12)NC(=O)[C@H](CCC(N)=O)NC(=O)[C@@H](NC(=O)[C@H](Cc1ccccc1)NC(=O)[C@H](C)NC(=O)[C@H](CCCCNC(=O)COCCOCCNC(=O)COCCOCCNC(=O)CC[C@H](NC(=O)CCCCCCCCCCCCCCCCCCC(=O)O)C(=O)O)NC(=O)[C@H](CCC(N)=O)NC(=O)[C@H](C)NC(=O)[C@@H](NC(=O)[C@H](CCCCN)NC(=O)[C@H](CC(=O)O)NC(=O)[C@H](CC(C)C)NC(=O)C(C)(C)NC(=O)[C@@H](NC(=O)[C@H](CO)NC(=O)[C@H](Cc1ccc(O)cc1)NC(=O)[C@H](CC(=O)O)NC(=O)[C@H](CO)NC(=O)[C@@H](NC(=O)[C@H](Cc1ccccc1)NC(=O)[C@@H](NC(=O)CNC(=O)[C@H](CCC(=O)O)NC(=O)C(C)(C)NC(=O)[C@@H](N)Cc1ccc(O)cc1)[C@@H](C)O)[C@@H](C)O)[C@@H](C)CC)[C@@H](C)CC)C(C)C)C(=O)N[C@@H](C)C(=O)NCC(=O)NCC(=O)N1CCC[C@H]1C(=O)N[C@@H](CO)C(=O)N[C@@H](CO)C(=O)NCC(=O)N[C@@H](C)C(=O)N1CCC[C@H]1C(=O)N1CCC[C@H]1C(=O)N1CCC[C@H]1C(=O)N[C@@H](CO)C(N)=O` has a serum lipase of 25.3 ± 6.5 U/L (healthy subjects, single ascending dose; 5.0 mg, day 29).
`CC1=C2CC(C(=O)N[C@@H]3CN(C(=O)c4ccc5ccnn5c4)Cc4nccn4C3)=CN=C2NN1` gave an inhibition of 11.5% (rep main protease; enzyme activity, inhibitor; 5 µM, mean of runs).
The inhibition of `Cc1nn(-c2ccc(Cl)cc2)c2c1C(c1ccc(-c3ccccc3)cc1)C(C#N)=C(N)O2` (stereo not drawn) is reported as 50.3% (SARS-CoV-2; viral replication; Vero; 10 µM).
For `O=C(/C=C/c1ccc(O)c(O)c1/C=C/c1ccc(O)c(O)c1)O[C@H](Cc1ccc(O)c(O)c1)C(=O)O`, the inhibition was 75% (SARS-CoV-2; cytopathic effect; Vero E6; 100 µM, replicate run).
`Nc1ncnc2c([C@@H]3N[C@H](CO)[C@@H](O)[C@H]3O)c[nH]c12` gave an inhibition of 98.9% (Marburg marburgvirus; viral glycoprotein surface expression; HeLa, Musoke; 100 µM).
`Cc1nn(-c2ccc(Cl)cc2)c2c1C(c1ccc(I)cc1)C(C#N)=C(N)O2` (stereo not drawn) has an inhibition of 58.1% (SARS-CoV-2; viral replication; Vero; 10 µM).
`C=CC(C)(C)c1cc(/C=C/C(=O)c2ccc(O)cc2)c(OC)cc1O` has an inhibition of 52.3% (SARS-CoV-2; viral replication; Vero E6, USA-WA1/2020; 2.5 µM).
With `CC(C)(C)[C@H](NS(=O)(=O)C1CC1)C(=O)N1C[C@H]2[C@@H]([C@H]1C(=O)N[C@H](C#N)C[C@@H]1CCNC1=O)C2(C)C` the inhibition was 80% (SARS-CoV-2; viral replication, qRT-PCR viral RNA; Vero E6; 10 µM).
The inhibition of `COc1cc(C2C(C#N)=C(N)Oc3c2c(C)nn3-c2ccc(Cl)cc2)cc(OC)c1OC` (stereo not drawn) is reported as 28.4% (SARS-CoV-2; viral replication; Vero; 1 µM).
`COc1ccc(C[C@@H]2c3cc(Oc4cc(C[C@@H]5c6cc(O)c(OC)cc6CCN5C)ccc4O)c(OC)cc3CCN2C)cc1` gave an inhibition of 0% (SARS-CoV-2; viral cytopathic effect; Vero E6; 1.562 µM).
`CC(C)(C)[C@H](NC(=O)C(F)(F)F)C(=O)N1CC2(CC2)C[C@H]1C(=O)N[C@H](C#N)C[C@@H]1CCNC1=O` gave an inhibition of 100% (SARS-CoV-2; viral replication, qRT-PCR viral RNA; Vero E6; 10 µM).
`O=C(CSc1nc2ccccc2c(=O)[nH]1)NNC(=O)c1ccccc1Br` has an inhibition of 45.1 ± 1.71% (SARS-CoV-2; viral replication, plaque reduction; 62.5 µM).
For `O=C(c1cncc2[nH]cnc12)N1CC[C@]2(CCCCN(C(=O)[C@H]3C[C@@H]4C=CC[C@@H](C4)C3)C2)C1`, the inhibition was 11.4% (rep main protease; enzyme activity, inhibitor; 5 µM, run 2).
The inhibition of `O=C(O[C@@H]1Cc2c(O)cc(O)cc2O[C@@H]1c1cc(O)c(O)c(O)c1)c1cc(O)c(O)c(O)c1` is reported as 0% (SARS-CoV-2; viral cytopathic effect; Vero E6; 0.7812 µM).
The inhibition of `CC(=O)N1CCN(CCOc2ccc(C3CCN(C4=Nn5c(nnc5C(F)(F)F)CC4)CC3)cc2)CC1` is reported as 49.8% (SARS-CoV-2; viral replication; Vero E6, USA-WA1/2020; 2.5 µM).
`CC(C)(C)[C@H](NC(=O)C(F)(F)F)C(=O)N1C[C@H]2[C@@H]([C@H]1C(=O)N[C@H](C#N)C[C@@H]1CCNC1=O)C2(C)C` gave an inhibition of 79.2% (SARS-CoV-2; viral replication; Vero E6; 0.5 µM).
`CN1C(=O)CN=C(C2=CCCCC2)c2cc(Cl)ccc21` gave an inhibition of 48.4% (SARS-CoV-2; viral replication; Vero C1008, USA-WA1/2020; 2.5 µM, reconfirmation).
With `CCC(=O)N[C@H](C[C@H](C)C(Cl)(Cl)Cl)C(=O)N1C(=O)C=C(OC)[C@@H]1C[C@H](C)C(Cl)(Cl)Cl` the inhibition was 1.17% (SARS-CoV-2; viral replication, mNeonGreen reporter virus; 50 µM).
`Cn1cnc(Cn2c(=O)[nH]/c(=N\c3cc4cn(C)nc4cc3Cl)n(Cc3cc(F)c(F)cc3F)c2=O)n1`: “dry mouth TEAE, Mild severity” 0% (human, severe renal impairment; oral, 375 mg).
`Cc1nn(-c2ccc(Cl)cc2)c2c1C(c1ccc(Cl)c(Cl)c1)C(C#N)=C(N)O2` (stereo not drawn) gave an inhibition of 3.03% (SARS-CoV-2; viral replication; Vero; 1 µM).
The inhibition of `O=C(CSc1nc2c(c(=O)[nH]1)CCCC2)NNC(=O)c1ccc(Cl)cc1` is reported as 6.7 ± 6.65% (SARS-CoV-2; viral adsorption, plaque reduction; 31.25 µM).
The inhibition of `CC(C)(C)[C@H](NC(=O)C(F)(F)F)C(=O)N1C[C@H]2[C@@H]([C@H]1C(=O)N[C@H](C#N)C[C@@H]1CCNC1=O)C2(C)C` is reported as 78.5% (SARS-CoV-2; viral replication, refers to: nucleocapsid; NHBE, Omicron BA.5; 1 µM, 3 h pretreatment).
`O=C(CSc1nc2c(c(=O)[nH]1)CCCC2)NNC(=O)c1ccc([N+](=O)[O-])cc1` has an inhibition of 33.6 ± 6.03% (SARS-CoV-2; virucidal activity, plaque reduction; 62.5 µM).
With `Cc1ccn(-c2ccc(C(=O)N3Cc4cccnc4Nc4ccccc43)c(C(F)(F)F)c2)n1` the inhibition was 59.5% (SARS-CoV-2; viral replication; Vero C1008, USA-WA1/2020; 2.5 µM, reconfirmation).

Excerpt of the above:
With `CC(C)(C)[C@H](NS(=O)(=O)C1CC1)C(=O)N1C[C@H]2[C@@H]([C@H]1C(=O)N[C@H](C#N)C[C@@H]1CCNC1=O)C2(C)C` the inhibition was 80% (SARS-CoV-2; viral replication, qRT-PCR viral RNA; Vero E6; 10 µM).
The inhibition of `COc1cc(C2C(C#N)=C(N)Oc3c2c(C)nn3-c2ccc(Cl)cc2)cc(OC)c1OC` (stereo not drawn) is reported as 28.4% (SARS-CoV-2; viral replication; Vero; 1 µM).
